Measurements of several laboratories.
Lines come from different studies, so protocols differ.
Organism: Klebsiella pneumoniae

SMILES	test	system	conditions	MIC
CC(=CC(C)CCCCC(=O)O)C1OC2C=CC1OC(=O)C=CC=CC=CC1OC3CC1OC(C=CCC1OC(CC(O)C1C)C(O)C(O)C=CCCC=CC2)C3C (stereo not shown)	microbial growth	DSM11678	–	> 20 µM
CC1(C)C(NC(=O)C(=NOC2(C(=O)O)CCC2)c2csc(N)n2)C(=O)N1OS(=O)(=O)O (stereo not shown)	agar dilution	2146, NDM-1	–	2 mg/L
CCCCCCCCCCCCCCCCCCn1cc(CN(CCC(=O)NCCN(CCC(=O)NCCN(CCC(=O)NCCN(C)C)CCC(=O)NCCN(C)C)CCC(=O)NCCN(CCC(=O)NCCN(C)C)CCC(=O)NCCN(C)C)CCC(=O)NCCN(CCC(=O)NCCN(CCC(=O)NCCN(C)C)CCC(=O)NCCN(C)C)CCC(=O)NCCN(CCC(=O)NCCN(C)C)CCC(=O)NCCN(C)C)nn1	–	ATCC 2146 NDM-1, LB broth	18 h	> 96 mg/L
CC1(C)[C@H](NC(=O)/C(=N\OCC(=O)N2CCC[C@@H]2C(=O)O)c2nsc(N)n2)C(=O)N1OS(=O)(=O)O	agar dilution	09-20, NDM-1	–	8 mg/L
COc1ccc2ccc(O)c(/C=N/[C@H]3CCCC[C@H]3/N=C/c3cc(C)ccc3O)c2c1	bacterial growth, broth microdilution	carbapenem-resistant clinical isolate	–	> 40 µM
CCCCCCCC(=O)N[C@@H](CCN)C(=O)N[C@H](C(=O)N[C@@H](CCN)C(=O)N[C@H]1CCNC(=O)[C@H]([C@@H](C)O)NC(=O)[C@H](CCN)NC(=O)[C@H](CCN)NC(=O)[C@H](Cc2ccccc2F)NC(=O)[C@@H](CC(C)C)NC(=O)[C@H](CCN)NC1=O)[C@@H](C)O	broth microdilution	ATCC 13883, colistin-susceptible	–	4 to 8 mg/L
CN[C@@H]1[C@H](O)[C@H](NC)[C@H]2O[C@]3(O)[C@H](O[C@@H]2[C@H]1O)O[C@H](C)C[C@H]3NC(=O)Cc1ccccc1	microbial growth, broth dilution	ATCC33495	–	> 200 mg/L
CC[C@H](C)[C@H](N)C(=O)N[C@@H](CCCNC(=N)N)C(=O)N[C@H](C(=O)N[C@@H](Cc1c[nH]c2ccccc12)C(=O)N[C@@H](Cc1ccccc1)C(=O)N[C@H](C(=O)N[C@@H](CCCCN)C(=O)N[C@H](C(=O)N[C@@H](CCCNC(=N)N)C(=O)N[C@@H](CCCCN)C(=O)N[C@@H](CCSC)C(=O)N[C@@H](CCCCN)C(=O)N[C@@H](C)C(=O)N[C@H](C(=O)N[C@@H](Cc1ccc(O)cc1)C(=O)N[C@@H](Cc1c[nH]cn1)C(=O)N[C@H](C(N)=O)[C@@H](C)O)[C@@H](C)CC)C(C)C)[C@@H](C)CC)C(C)C	broth dilution	ATCC 700603	–	25 µM
CC[C@H](C)[C@H](NC(=O)[C@@H](CCCNC(=N)N)NC(=O)[C@H](CCCNC(=N)N)NC(=O)[C@@H]1CCCN1C(=O)[C@@H]1CCCN1C(=O)[C@H](CCCNC(=N)N)NC(=O)[C@@H]1CCCN1C(=O)[C@H](CCCNC(=N)N)NC(=O)[C@@H]1CCCN1C(=O)[C@H](CC(C)C)NC(=O)[C@H](Cc1ccc(O)cc1)NC(=O)[C@H](CCCNC(=N)N)NC(=O)[C@@H]1CCCN1C(=O)[C@H](CCCCN)NC(=O)[C@H](CC(=O)O)NC(=O)[C@@H](N)C(C)C)C(=O)N[C@@H](Cc1ccc(O)cc1)C(=O)N[C@@H](CC(N)=O)C(=O)N[C@H](CCCNC(=N)N)C(N)=O	broth microdilution	DSM 681	18 h, 37 °C, 25% MHB2	8 mg/L
CC1(C)[C@H](NC(=O)/C(=N\OCC(=O)N2CCC(C(=O)O)CC2)c2csc(N)n2)C(=O)N1OS(=O)(=O)O	agar dilution	2146, NDM-1	–	> 64 mg/L
CC[C@H](C)[C@H](NC(=O)CNC(=O)[C@H](CC(=O)O)NC(=O)[C@H](CCCNC(=N)N)NC(=O)[C@@H](NC(=O)[C@H](Cc1c[nH]cn1)NC(=O)[C@H](CCC(N)=O)NC(=O)CNC(=O)[C@@H](NC(=O)[C@H](CCCNC(=N)N)NC(=O)[C@H](CCC(=O)O)NC(=O)[C@@H](NC(=O)[C@H](CCCCN)NC(=O)[C@H](CCCCN)NC(=O)[C@H](Cc1ccccc1)NC(=O)[C@@H](NC(=O)[C@H](CCCCN)NC(=O)[C@H](Cc1c[nH]c2ccccc12)NC(=O)[C@@H](N)CCCCN)[C@@H](C)CC)[C@@H](C)CC)C(C)C)C(C)C)C(=O)N[C@H](C(=O)N[C@@H](CCCCN)C(=O)N[C@@H](C)C(=O)NCC(=O)N[C@@H](CO)C(=O)N[C@@H](C)C(=O)N[C@H](C(=O)N[C@@H](CCC(N)=O)C(=O)N[C@H](C(=O)N[C@H](C(=O)NCC(=O)N[C@@H](CCC(N)=O)C(=O)N[C@@H](C)C(=O)N[C@@H](C)C(=O)N[C@@H](C)C(=O)N[C@H](C(=O)N[C@@H](C)C(=O)N[C@@H](CCCCN)C(N)=O)[C@@H](C)CC)C(C)C)C(C)C)C(C)C)[C@@H](C)CC	bacterial growth, broth microdilution	cation-adjusted Mueller Hinton broth	18 h, 37 °C	≤ 0.062 µM
COc1ccc2ccc(O)c(/C=N/[C@H]3CCCC[C@H]3/N=C/c3cc(C(C)(C)C)ccc3O)c2c1	bacterial growth, broth microdilution	carbapenem-resistant clinical isolate	–	> 40 µM
CCCCCCCC(=O)N[C@@H](CCN)C(=O)N[C@H](C(=O)N[C@@H](CCN)C(=O)N[C@H]1CCNC(=O)[C@H]([C@@H](C)O)NC(=O)[C@H](CCN)NC(=O)[C@H](CCN)NC(=O)[C@H](CCC(C)C)NC(=O)[C@@H](Cc2ccccc2)NC(=O)[C@H](CCN)NC1=O)[C@@H](C)O	broth microdilution	ATCC 13883, colistin-susceptible	–	0.25 to 4 mg/L
CC[C@H](C)[C@H](NC(=O)[C@@H](CCCNC(=N)N)NC(=O)[C@H](CCCNC(=N)N)NC(=O)[C@@H]1CCCN1C(=O)[C@@H]1CCCN1C(=O)[C@H](CCCNC(=N)N)NC(=O)[C@@H]1CCCN1C(=O)[C@H](CCCNC(=N)N)NC(=O)[C@@H]1CCCN1C(=O)[C@H](CC(C)C)NC(=O)[C@H](Cc1ccc(O)cc1)NC(=O)[C@@H]1CCCN1C(=O)[C@H](Cc1ccccc1)NC(=O)[C@H](CCCCN)NC(=O)[C@H](CC(=O)O)NC(=O)[C@@H](N)C(C)C)C(=O)N[C@@H](Cc1ccc(O)cc1)C(=O)N[C@@H](CC(N)=O)C(=O)N[C@H](CCCNC(=N)N)C(N)=O	broth microdilution	DSM 681	18 h, 37 °C, 25% MHB2	16 mg/L
N=C(N)NCCC[C@@H]1NC(=O)[C@H](CCCNC(=N)N)NC(=O)[C@@H](CCCNC(=N)N)NC(=O)[C@H](C(c2ccccc2)c2ccccc2)NC(=O)[C@H](C(c2ccccc2)c2ccccc2)NC(=O)[C@H](C(c2ccccc2)c2ccccc2)NC(=O)[C@H](CCCNC(=N)N)NC1=O	–	1188718, multidrug-resistant	–	> 64 mg/L
CC[C@H](C)[C@H](NC(=O)[C@@H](CCCNC(=N)N)NC(=O)[C@H](CCCNC(=N)N)NC(=O)[C@H](CCC(N)=O)NC(=O)[C@H](Cc1c[nH]c2ccccc12)NC(=O)[C@H](CCCNC(=N)N)NC(=O)[C@@H]1CCCN1C(=O)[C@H](CCCNC(=N)N)NC(=O)[C@@H]1CCCN1C(=O)[C@H](CC(C)C)NC(=O)[C@H](Cc1ccc(O)cc1)NC(=O)[C@@H]1CCCN1C(=O)[C@@H]1CCCN1C(=O)[C@H](CCCCN)NC(=O)[C@H](CC(=O)O)NC(=O)[C@@H](N)C(C)C)C(=O)N[C@@H](Cc1ccc(O)cc1)C(=O)N[C@@H](CC(N)=O)C(=O)N[C@H](CCCNC(=N)N)C(N)=O	broth microdilution	DSM 681	18 h, 37 °C, 25% MHB2	4 mg/L
N=C(N)NCCC[C@@H]1NC(=O)[C@H](CCCNC(=N)N)NC(=O)[C@@H](CCCNC(=N)N)NC(=O)[C@@H](CCCNC(=N)N)NC(=O)[C@@H](C(c2ccccc2)c2ccccc2)NC(=O)[C@H](Cc2c[nH]c3ccccc23)NC(=O)[C@@H](C(c2ccccc2)c2ccccc2)NC1=O	–	ATCC BAA1705, KPC-2 carbapenem-resistant	–	> 64 mg/L
CC(C)(O/N=C(\C(=O)N[C@@H]1C(=O)N(OS(=O)(=O)O)C1(C)C)c1nsc(N)n1)C(=O)O	agar dilution	09-20, NDM-1	–	64 mg/L
CCCCCCCC(=O)N[C@@H](CCN)C(=O)N[C@H](C(=O)N[C@@H](CCN)C(=O)N[C@H]1CCNC(=O)[C@H]([C@@H](C)O)NC(=O)[C@H](CCN)NC(=O)[C@H](CCN)NC(=O)[C@H](Cc2ccccc2)NC(=O)[C@@H](CCC(C)C)NC(=O)[C@H](CCN)NC1=O)[C@@H](C)O	broth microdilution	ATCC 13883, colistin-susceptible	–	0.5 to 4 mg/L
COc1ccc2ccc(O)c(/C=N/[C@H]3CCCC[C@H]3/N=C/c3cccc(C)c3O)c2c1	bacterial growth, broth microdilution	carbapenem-resistant	–	> 40 µM
CC[C@H](C)[C@H](NC(=O)[C@@H](CCCNC(=N)N)NC(=O)[C@H](CCCNC(=N)N)NC(=O)[C@@H]1CCCN1C(=O)[C@@H]1CCCN1C(=O)[C@H](CCCNC(=N)N)NC(=O)[C@@H]1CCCN1C(=O)[C@H](CCCNC(=N)N)NC(=O)[C@@H]1CCCN1C(=O)[C@H](CC(C)C)NC(=O)[C@H](Cc1ccc(O)cc1)NC(=O)[C@H](Cc1c[nH]cn1)NC(=O)[C@@H]1CCCN1C(=O)[C@H](CCCCN)NC(=O)[C@H](CC(=O)O)NC(=O)[C@@H](N)C(C)C)C(=O)N[C@@H](Cc1ccc(O)cc1)C(=O)N[C@@H](CC(N)=O)C(=O)N[C@H](CCCNC(=N)N)C(N)=O	broth microdilution	DSM 681	18 h, 37 °C, 25% MHB2	8 mg/L
CCn1c(-c2ccc(-c3ccc(OC)cc3)cc2)c(-c2ccc(-c3ccc(OC)cc3)cc2)n(CC)c1=[Se]	broth microdilution	carbapenem-resistant BAA-1705	24 h	> 40 µM

A few entries again:
SMILES	test	system	conditions	MIC
CCCCCCCCCCCCCCCCCCn1cc(CN(CCC(=O)NCCN(CCC(=O)NCCN(CCC(=O)NCCN(C)C)CCC(=O)NCCN(C)C)CCC(=O)NCCN(CCC(=O)NCCN(C)C)CCC(=O)NCCN(C)C)CCC(=O)NCCN(CCC(=O)NCCN(CCC(=O)NCCN(C)C)CCC(=O)NCCN(C)C)CCC(=O)NCCN(CCC(=O)NCCN(C)C)CCC(=O)NCCN(C)C)nn1	–	ATCC 2146 NDM-1, LB broth	18 h	> 96 mg/L
CC[C@H](C)[C@H](NC(=O)[C@@H](CCCNC(=N)N)NC(=O)[C@H](CCCNC(=N)N)NC(=O)[C@@H]1CCCN1C(=O)[C@@H]1CCCN1C(=O)[C@H](CCCNC(=N)N)NC(=O)[C@@H]1CCCN1C(=O)[C@H](CCCNC(=N)N)NC(=O)[C@@H]1CCCN1C(=O)[C@H](CC(C)C)NC(=O)[C@H](Cc1ccc(O)cc1)NC(=O)[C@H](Cc1c[nH]cn1)NC(=O)[C@@H]1CCCN1C(=O)[C@H](CCCCN)NC(=O)[C@H](CC(=O)O)NC(=O)[C@@H](N)C(C)C)C(=O)N[C@@H](Cc1ccc(O)cc1)C(=O)N[C@@H](CC(N)=O)C(=O)N[C@H](CCCNC(=N)N)C(N)=O	broth microdilution	DSM 681	18 h, 37 °C, 25% MHB2	8 mg/L
CC[C@H](C)[C@H](N)C(=O)N[C@@H](CCCNC(=N)N)C(=O)N[C@H](C(=O)N[C@@H](Cc1c[nH]c2ccccc12)C(=O)N[C@@H](Cc1ccccc1)C(=O)N[C@H](C(=O)N[C@@H](CCCCN)C(=O)N[C@H](C(=O)N[C@@H](CCCNC(=N)N)C(=O)N[C@@H](CCCCN)C(=O)N[C@@H](CCSC)C(=O)N[C@@H](CCCCN)C(=O)N[C@@H](C)C(=O)N[C@H](C(=O)N[C@@H](Cc1ccc(O)cc1)C(=O)N[C@@H](Cc1c[nH]cn1)C(=O)N[C@H](C(N)=O)[C@@H](C)O)[C@@H](C)CC)C(C)C)[C@@H](C)CC)C(C)C	broth dilution	ATCC 700603	–	25 µM
